{"data": "Measurements from different studies", "note": "Numbered parts are unrelated; each lists some results of a single study. Positions count from the first letter of the parent shown.", "chain of UniProt O15294 (whole entry, looked up)": "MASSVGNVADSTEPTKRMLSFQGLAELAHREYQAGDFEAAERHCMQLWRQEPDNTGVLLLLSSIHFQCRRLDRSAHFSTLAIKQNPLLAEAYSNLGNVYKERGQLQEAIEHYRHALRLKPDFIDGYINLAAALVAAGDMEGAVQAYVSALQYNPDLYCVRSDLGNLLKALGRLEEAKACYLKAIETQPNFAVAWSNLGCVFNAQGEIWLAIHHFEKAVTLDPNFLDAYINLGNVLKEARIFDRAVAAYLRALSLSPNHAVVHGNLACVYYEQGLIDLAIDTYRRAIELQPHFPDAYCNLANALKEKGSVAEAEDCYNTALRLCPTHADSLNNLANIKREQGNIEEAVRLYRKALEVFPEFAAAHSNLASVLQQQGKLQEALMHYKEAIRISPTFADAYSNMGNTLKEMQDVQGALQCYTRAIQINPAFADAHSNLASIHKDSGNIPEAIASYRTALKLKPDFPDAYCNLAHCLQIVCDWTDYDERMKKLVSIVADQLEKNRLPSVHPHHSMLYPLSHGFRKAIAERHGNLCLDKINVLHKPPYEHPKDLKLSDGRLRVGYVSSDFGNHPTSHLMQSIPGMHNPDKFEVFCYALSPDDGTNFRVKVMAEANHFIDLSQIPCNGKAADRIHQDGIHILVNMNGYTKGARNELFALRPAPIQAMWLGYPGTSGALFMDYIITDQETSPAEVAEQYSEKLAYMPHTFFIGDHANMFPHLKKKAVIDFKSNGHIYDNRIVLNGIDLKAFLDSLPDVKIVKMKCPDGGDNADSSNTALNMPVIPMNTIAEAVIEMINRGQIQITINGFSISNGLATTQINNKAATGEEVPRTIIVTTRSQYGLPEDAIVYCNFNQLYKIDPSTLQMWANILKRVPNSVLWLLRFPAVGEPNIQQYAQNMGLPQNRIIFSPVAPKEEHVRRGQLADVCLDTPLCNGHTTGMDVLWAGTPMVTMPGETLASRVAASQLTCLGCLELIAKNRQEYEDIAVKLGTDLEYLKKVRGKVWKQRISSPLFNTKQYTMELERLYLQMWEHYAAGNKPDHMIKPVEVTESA"}
{"data": "Study 1", "target": "RNA binding protein fox-1 homolog 2, RRM domain, GST-SBP tag (RBFOX2, Homo sapiens, UniProt O43251-10, residues 100-194)", "method": "RNA Bind-n-Seq", "form": "RNA", "sample": "in vitro", "concentration": "365 nM", "setting": "natural RNA segment, single round, ends assumed", "reference": "no-protein control", "direction": "higher = stronger binding", "shared flanks, not repeated": "GGGAGUUCUACAGUCCGACGAUC … UGGAAUUCUCGGGUGCCAA", "Construct (chain)": "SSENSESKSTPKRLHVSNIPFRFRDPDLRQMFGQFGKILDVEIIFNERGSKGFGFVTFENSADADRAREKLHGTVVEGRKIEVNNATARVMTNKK"}
{"Sequence": "AUCUUCUGGGCCCAGAGUCAGGGUCUCUGUGUCCCCUGUGCCUCCUGGGGACUGCUGCUGUCCUGCCCUUGUAAGCCAUGGCUGAUCACUUUUGGUCAAUAUGUCAAAAU", "RBNS enrichment (R)": 0.392}
{"Sequence": "AACACUACAGCCUGCCUUGGAGCUGGCCUAUCUCUGGGGGUGUUAGAGAGUUUGUGGGGAUCUCUUCUGAGUACCCCAGGACUUGGGAAAUAAUGCAAGAGUAUCCCUUU", "RBNS enrichment (R)": 1.6}
{"Sequence": "GCAAAUAGUGUUCUCAUCUCAAAGCAAACUAUCAUUCCAGAAGGAAAAGUGUGUCAGGGCAAGCAGACAACACAAUUUCCUAUCAGAAUAUGUCCCUCAACCCCCGAAAC", "RBNS enrichment (R)": 0.881}
{"Sequence": "AGGCAGUUACUCUUCCGAGUUUAUACUCGCCUCUUCUUUAAGAGGAUUUCCUGAAAAGGGAACACCGGAAUUUGAUUUGUGGCCAAAUUUACUGAGAAAAAGAUGAGGUU", "RBNS enrichment (R)": 0.477}
{"Sequence": "UUUCUUCUCUCCAGUGGCACUUGUUGGCAACUAGAUACAGGUUUCUAACCGGUUCACGGUUCACCCCCUAUAUGUAAUUAUAGGAAUUGUAUGUGGAAAUGGAUUAACAU", "RBNS enrichment (R)": 0.304}
{"Sequence": "UGCUUUUUAGUUUUGUAUAUCAGAUGUCUAGCAGGCAUUCAGCUAAUGCAAAAACAGAUUAGUAUGUGUUCAGGUGAACUUUUACUUAAAACAUUAAACUUUGGCUCUCC", "RBNS enrichment (R)": 0.236}
{"Sequence": "AUAGCCAGAUAGUUAGAAAAAGAUUUUCAUUGAUGACAUAUCUUUAAACUUUCUUGCAUCAGUAUUCUAAAUUGAGCAAACUGAAAGAUUUUCAUCAGGAAAGGAGCACU", "RBNS enrichment (R)": 0.368}
{"Sequence": "GGGUAAGAAUUUCCGCUCCUACUUGCUAGAUCUGCGAAAUACUAGCACUCCUUUCAAGGGUGUUGGCAAGGCCCUCAUUGAUACUCUCCUGGAUGGAUAUGAGACAGCCC", "RBNS enrichment (R)": 0.217}
{"data": "Study 2", "target": "ABI1, truncated, D143A, DHFR fusion (Arabidopsis thaliana, UniProt P49597)", "method": "DHFR PCA, dose-response", "sample": "yeast", "setting": "Hill fit, not affinity", "together with": "(+)-ABA, dose series", "direction": "lower = more sensitive", "starting sequence": "PYL1, truncated, DHFR fusion (Arabidopsis thaliana, UniProt Q8VZS8); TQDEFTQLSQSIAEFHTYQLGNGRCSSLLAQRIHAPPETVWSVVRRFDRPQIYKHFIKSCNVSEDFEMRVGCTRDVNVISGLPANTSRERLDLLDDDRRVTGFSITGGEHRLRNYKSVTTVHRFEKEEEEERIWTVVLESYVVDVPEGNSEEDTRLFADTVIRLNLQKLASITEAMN"}
{"Substitution": "N77Q", "ABA EC50 [µM]": 2.1}
{"Substitution": "L93I", "ABA EC50 [µM]": 0.539}
{"Substitution": "V40L", "ABA EC50 [µM]": 1260}
{"Substitution": "R123Q", "ABA EC50 [µM]": 6.4}
{"Substitution": "H110P", "ABA EC50 [µM]": 1.21}
{"Substitution": "Q2P", "ABA EC50 [µM]": 11}
{"Substitution": "N177T", "ABA EC50 [µM]": 0.83}
{"Substitution": "V161I", "ABA EC50 [µM]": 0.201}
{"data": "Study 3", "target": "Hepatocyte nuclear factor 3-beta, forkhead domain (FOXA2, Homo sapiens, UniProt Q9Y261, residues 142-269)", "method": "protein-binding microarray", "form": "double-stranded DNA, one strand shown", "sample": "in vitro", "concentration": "not given", "setting": "k-mer, scored over probes, only values ≥0.25", "direction": "higher = stronger binding", "Target sequence (chain)": "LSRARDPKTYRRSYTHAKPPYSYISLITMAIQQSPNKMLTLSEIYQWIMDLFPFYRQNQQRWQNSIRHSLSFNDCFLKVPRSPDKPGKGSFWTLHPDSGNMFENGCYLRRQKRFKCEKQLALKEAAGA"}
{"Sequence": "GGTATATA", "E-score": 0.254}
{"Sequence": "TTATATAA", "E-score": 0.295}
{"Sequence": "CTAAATAC", "E-score": 0.255}
{"Sequence": "GATACATC", "E-score": 0.259}
{"Sequence": "TAAGCATA", "E-score": 0.277}
{"Sequence": "TGTCATAA", "E-score": 0.281}
{"Sequence": "CAAATACA", "E-score": 0.348}
{"Sequence": "ATAATAAG", "E-score": 0.284}
{"data": "Mixed results"}
{"Molecule": "MWSPTVPPKYIIKYK", "target": "UDP-N-acetylglucosamine--peptide N-acetylglucosaminyltransferase 110 kDa subunit (OGT, Homo sapiens, UniProt O15294)", "assay": "binding, phage display NGS", "system": "peptide", "conditions": "concentration not given, panning round 2", "scale": "reference: input library", "measurement": "enrichment fold change", "result": 7.84}
{"note": "Repeated from above (study 2):"}
{"Substitution": "R123Q", "ABA EC50 [µM]": 6.4}
{"Substitution": "H110P", "ABA EC50 [µM]": 1.21}
{"Substitution": "Q2P", "ABA EC50 [µM]": 11}
{"Substitution": "N177T", "ABA EC50 [µM]": 0.83}
